Assay results collected from several papers.
Each line is one published result; not all experiments were run side by side. Numbers after ± are the reported error.
UCHL1: Ubiquitin carboxyl-terminal hydrolase isozyme L1 (UCHL1, Homo sapiens, UniProt P09936)
Chain of UniProt P09936 (whole entry, looked up): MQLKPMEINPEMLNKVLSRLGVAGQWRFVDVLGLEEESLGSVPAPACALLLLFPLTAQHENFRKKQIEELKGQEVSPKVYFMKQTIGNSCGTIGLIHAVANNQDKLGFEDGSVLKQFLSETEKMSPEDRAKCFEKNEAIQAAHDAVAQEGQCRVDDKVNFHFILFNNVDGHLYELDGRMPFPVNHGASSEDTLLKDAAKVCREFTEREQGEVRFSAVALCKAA

OCc1ccc(Nc2ccc3c(Nc4cccc(C(F)(F)F)c4)ncnc3c2)cc1: “late apoptotic cells” 16.8% (MCF7; annexin V-PE/DAPI; concentration not given, 24 h).
O=[N+]([O-])c1cc(I)c(O)c(C=NNc2ccccc2)c1 — result for “early apoptotic cells”: 41% (MCF7; annexin V; IC50, 24 h).
For C=CC(=O)c1cccnc1Nc1cc(C(F)(F)F)ccc1OC, “TEAD reporter activity” read 1.6 ± 0.1% (MCF7; firefly luciferase reporter; 100 µM, 6 h; baseline: vehicle).
N#CC(=Cc1ccccc1[N+](=O)[O-])C(=O)Nc1ccc2c(c1)OCCO2 has a labelling of 17.4% (UCHL1; covalent, intact protein LC-MS; 12.5 µM).
CC(=O)c1nn(-c2ccc(Cl)cc2)/c(=N/N=C(\C)c2ccc(NC(=O)c3ccccc3)cc2)s1 gave a viability of 4.84% (MCF7; 10 µM).
C=CC(=O)c1cccnc1Nc1cc(NC(C)=O)ccc1OC: “TEAD reporter activity” 62.2 ± 1% (MCF7; firefly luciferase reporter; 25 µM, 6 h; baseline: vehicle).
The cytotoxicity of CCOC(=O)c1nn(-c2cccc(Cl)c2)/c(=N/N=C(\C)c2ccc(NC(=O)c3ccc(Cl)cc3)cc2)s1 is reported as 26.5% (MCF7; MTT; 0.078 µM).
N#CC(=Cc1ccccc1)C(=O)Nc1ccccc1F gave a labelling of 10.8% (UCHL1; covalent, intact protein LC-MS; 12.5 µM).
For CC(=O)c1nn(-c2ccccc2Cl)/c(=N/N=C(\C)c2ccc(NC(=O)c3ccccc3)cc2)s1, the cytotoxicity was 93.8% (MCF7; MTT; 2.5 µM).
The viability of CC(=O)c1nn(-c2ccc(Cl)cc2)/c(=N/N=C(\C)c2ccc(NC(=O)c3ccc(Cl)cc3)cc2)s1 is reported as 99.9% (MCF7; 0.625 µM).
For CCOC(=O)c1nn(-c2cccc(Cl)c2)/c(=N/N=C(\C)c2ccc(NC(=O)c3ccccc3)cc2)s1, the cytotoxicity was 40.8% (MCF7; MTT; 0.156 µM).
O=C(O)c1cccnc1Nc1cccc(C(F)(F)F)c1 — result for “TEAD reporter activity”: 172 ± 5.5% (MCF7; firefly luciferase reporter; 100 µM, 6 h; baseline: vehicle).

For quick reference, copied from above:
For C=CC(=O)c1cccnc1Nc1cc(C(F)(F)F)ccc1OC, “TEAD reporter activity” read 1.6 ± 0.1% (MCF7; firefly luciferase reporter; 100 µM, 6 h; baseline: vehicle).
